{"data": "Measurements from different studies", "note": "Protocols differ between the studies behind these lines. Values joined by “and” are separate records of one study, mostly repeats; a detail may differ. Numbers after ± are the reported error.", "chain of UniProt P25098 (whole entry, looked up)": "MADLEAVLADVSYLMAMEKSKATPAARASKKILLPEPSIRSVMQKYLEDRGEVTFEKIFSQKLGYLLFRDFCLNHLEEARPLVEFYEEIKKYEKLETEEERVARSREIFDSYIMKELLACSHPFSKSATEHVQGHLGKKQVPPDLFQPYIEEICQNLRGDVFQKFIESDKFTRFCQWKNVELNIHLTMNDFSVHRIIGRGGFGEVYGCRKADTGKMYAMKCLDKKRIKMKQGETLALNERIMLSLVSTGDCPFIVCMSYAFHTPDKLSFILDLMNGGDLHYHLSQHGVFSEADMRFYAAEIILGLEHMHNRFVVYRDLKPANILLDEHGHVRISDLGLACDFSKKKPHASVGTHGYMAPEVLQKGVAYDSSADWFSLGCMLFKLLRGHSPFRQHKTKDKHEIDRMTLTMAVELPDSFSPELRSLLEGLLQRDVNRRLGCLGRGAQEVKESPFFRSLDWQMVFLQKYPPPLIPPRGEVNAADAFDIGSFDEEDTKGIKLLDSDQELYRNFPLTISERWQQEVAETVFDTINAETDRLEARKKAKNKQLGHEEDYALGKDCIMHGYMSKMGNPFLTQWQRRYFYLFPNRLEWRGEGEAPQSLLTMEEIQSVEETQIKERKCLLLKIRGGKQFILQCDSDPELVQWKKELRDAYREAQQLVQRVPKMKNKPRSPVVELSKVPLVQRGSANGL"}
{"SMILES": "C=C(NC(=O)c1csc(-c2nc3c(cc2O)-c2nc(cs2)C(=O)NC(C(C)O)C(=O)NC(=C(C)OC)c2nc(cs2)C(=O)NC2c4nc(cs4)C(=O)NC(COC(=O)c4c5c6c(cccc6n4O)COC(=O)C(OC4CC(C)(O)C(N(C)C)C(C)O4)C2OC5)c2nc-3cs2)n1)C(N)=O (stereo not drawn)", "system": "cynomolgus monkey, both sexes, plasma", "conditions": "intravenous infusion, 9 mg/kg single dose", "endpoint": "MRT(0-last)", "result": "1.78 h"}
{"SMILES": "COC1CN([C@H]2CC[C@H]([C@@]3(C)Oc4c(Cl)cc(C(=O)NCc5c(SC)cc(C)[nH]c5=O)c(C)c4O3)CC2)C1", "test": "RNA-seq, measured: A3GALT2 mouse homolog", "system": "mouse, HT-1376 xenograft, whole blood", "conditions": "dose not given", "scale": "baseline: vehicle", "endpoint": "log2 fold change", "result": 0.503}
{"SMILES": "CC[n+]1cccc2cc(/C=N/NC(=O)c3ccc4ccc(C(=O)N/N=C/c5ccc6c(ccc[n+]6CC)c5)nc4n3)ccc21", "tested on": "telomeric G4 DNA hybrid-2", "test": "FRET melting", "conditions": "1 µM, DNA 0.2 µM", "endpoint": "ΔTm", "result": "21.2 ± 1 °C"}
{"SMILES": "Nc1ncc(-c2cc(-c3cnn(CC(F)(F)F)c3)ncc2F)nc1C(=O)NC1CNCC(F)C1 (stereo not drawn)", "tested on": "CDKL2", "test": "KINOMEscan", "conditions": "1 µM", "scale": "baseline: DMSO control", "endpoint": "remaining binding", "result": "91%"}
{"SMILES": "O=C(C[Se]C(=O)c1cccnc1Nc1cccc(C(F)(F)F)c1)Nc1cccc(C(F)(F)F)c1", "tested on": "NCI60 breast subpanel", "test": "NCI60 five-dose screen", "endpoint": "GI50", "result": "2.04 µM"}
{"SMILES": "O=C(Nc1cnccc1-c1ccc([18F])nc1)c1ccnc(NC(=O)C2CC2)c1", "system": "FVB/NJ mouse, both sexes, brain", "conditions": "intravenous, 2 min post-injection, together with: P-gp inhibitor tariquidar 15 mg/kg iv", "endpoint": "SUV", "result": "0.28 ± 0.16"}
{"SMILES": "CCC(=CCc1c(O)cc2c(c1O)C(=O)CC(c1ccc(O)cc1)O2)CC (stereo not drawn)", "tested on": "HeLa", "test": "annexin V/PI", "conditions": "24 µM, 48 h", "endpoint": "late apoptotic cells", "result": "51.6%"}
{"SMILES": "CN1CCCNC(=O)c2cccc(c2)C(=O)NCCCN(C)CCCNc2cccc3c2C(=O)c2cccc(c2C3=O)NCCC1", "tested on": "SAS", "test": "RNA-Seq, measured: NOL8 mRNA", "conditions": "1 µM, 6 h", "scale": "baseline: untreated cells", "endpoint": "log2 fold change", "result": -0.992}
{"SMILES": "CN1CCC(N[C@@H]2CCc3[nH]c4c(C(N)=O)ccc(-c5ccccc5Cl)c4c3C2)CC1", "tested on": "SU-DHL-4", "test": "cell growth or viability", "endpoint": "IC50", "result": "0.00634 µM"}
{"SMILES": "COCCCCCNc1nc(NCCCCCCN(C)C)c2cc(NC(=O)/C=C/CN(C)C)ccc2n1", "tested on": "MCF7", "test": "CellTiter-Glo", "conditions": "0.3906 µM, 48 h, unit not given", "scale": "baseline: DMSO-treated cells", "endpoint": "viability", "result": "1.06 and 1.05 and 1.16"}
{"SMILES": "CC(=O)[O-].O.O.O.O.[Mn+2].[O-]c1ccc(Br)cc1C=NCCN1CCOCC1", "test": "FRAP", "conditions": "200 µM", "endpoint": "ferric reducing power", "result": "45.4%"}
{"SMILES": "Cc1cc(Cl)cc(-c2ccnc3cc(CN4C(=O)C5C(C4=O)C5(C)C)sc23)c1C[C@@H]1CNCCO1 (stereo partly drawn)", "tested on": "CHP-212 USP7 V517F knock-in clone", "test": "cell growth, SRB", "conditions": "0.625 µM, 625 nM in clone KI#2", "endpoint": "viability", "result": "103%"}
{"SMILES": "O=C1C2CC3CC1CC(C(=O)N1CCN(c4ccc([N+](=O)[O-])c5ncccc45)CC1)(C3)C2", "tested on": "Salmonella typhimurium", "test": "Ames test", "system": "TA1535", "conditions": "0.31 µg/well, without S9", "endpoint": "mean revertant colonies", "result": "4 colonies/well"}
{"SMILES": "Cc1nn(-c2cccc(N)c2)c(=O)c2cnc(Nc3ccc(N4CCNCC4)cc3)nc12", "tested on": "Beta-adrenergic receptor kinase 1 (GRK2, Homo sapiens, UniProt P25098)", "test": "enzyme activity, inhibitor", "endpoint": "IC50", "result": "> 10 µM"}
{"SMILES": "Cn1c(=O)n(C2CCC(=O)NC2=O)c2ccc(C3CCN(CC(=O)Nc4cccc(CS(=O)(=O)N5CC[C@H](Nc6cccc(-c7sc(C(=O)O)c(OCC(=O)O)c7Cl)c6)CC5(C)C)c4)CC3)cc21 (stereo partly drawn)", "tested on": "B16-F10", "test": "HTRF, measured: phospho-STAT1 Tyr701", "conditions": "0.37 µM, together with: IFN-γ", "scale": "baseline: DMSO", "endpoint": "fold change", "result": "5.83 and 5.5 and 5.52 and 5.63 and 6.05 and 5.23"}
{"SMILES": "CO[C@@H]1[C@@H](OC(N)=O)[C@@H](O)[C@H](Oc2ccc3c(O)c(NC(=O)c4ccc(O)c(CC=C(C)C)c4)c(=O)oc3c2C)OC1(C)C", "tested on": "DLD-1 BRCA2-/-", "conditions": "250 µM, replicate A", "scale": "baseline: untreated", "endpoint": "colony survival", "result": "0.339%"}
{"SMILES": "CC(C)(C)c1cc(-c2ccc3cc4ccccc4nc3n2)nc(-c2ccc3cc4ccccc4nc3n2)c1.[Cl-].[Cl-].[Ru+2].c1ccc2cc3nc4c5cccnc5c5ncccc5c4nc3cc2c1", "tested on": "B16-F10", "test": "resazurin", "conditions": "together with: light 733 nm, 9 mW, 100 J/cm2", "endpoint": "EC50", "result": "53.4 µM"}
{"SMILES": "C=CC(=O)Nc1cccc(Cn2ncc3cnc(Nc4cnn(CCOC)c4)nc32)c1", "tested on": "MYLK2 human", "test": "binding, KINOMEscan", "conditions": "100 nM", "scale": "lower = stronger binding", "endpoint": "percent of control", "result": "67%"}
{"SMILES": "CCN(CC)CC(=O)Nc1cccc(-n2cc(-c3ccc4ccc(-c5cn(-c6cccc(NC(=O)CN(CC)CC)c6)nn5)cc4c3)nn2)c1", "tested on": "RCC4", "test": "PCR angiogenesis array, measured: TGFB1", "conditions": "5 x IC50, 2 h, normoxia", "scale": "baseline: untreated", "endpoint": "fold regulation", "result": "1.01 fold"}
{"SMILES": "[BH3-][P+]1(c2ccccc2)CCCCC1", "tested on": "HCT-116", "test": "MTT", "conditions": "72 h", "scale": "baseline: IC50 HaCaT over IC50 HCT-116", "endpoint": "selectivity index", "result": 2.03}
{"SMILES": "COc1ccc(NC(=O)c2c(Nc3ccccc3)sc(C(=O)N/N=C/c3ccc(OC)c(OC)c3)c2NC(C)=O)cc1", "tested on": "HCT-116", "test": "cell growth or viability, SRB", "conditions": "0.1 µM, 48 h", "endpoint": "viability", "result": "63.5%"}
{"SMILES": "CC(C)(C)c1cc(-c2ccc3cccnc3n2)nc(-c2ccc3cccnc3n2)c1.[Cl-].[Cl-].[Ru+2].c1cnc2c(c1)ccc1cccnc12", "tested on": "B16-F10", "test": "resazurin", "conditions": "together with: light 523 nm, 20 mW, 100 J/cm2", "endpoint": "EC50", "result": "168 ± 4 µM"}
{"SMILES": "O=C(N/N=C/c1ccc(C[n+]2ccccc2)cc1)c1cc(C(=O)N/N=C/c2ccc(C[n+]3ccccc3)cc2)ncn1", "tested on": "telomeric G4 DNA hybrid-2", "test": "FRET melting", "conditions": "1 µM, DNA 0.2 µM", "endpoint": "ΔTm", "result": "3.1 ± 1 °C"}
{"SMILES": "Cc1ncsc1-c1ccc(C(C)NC(=O)C2CC(O)CN2C(=O)C(NC(=O)CCCCCCCCCCN2CCCC(Nc3ncc(Cl)c(Nc4ccccc4S(=O)(=O)C(C)C)n3)C2)C(C)(C)C)cc1 (stereo not drawn)", "tested on": "22Rv1", "test": "RNA-seq, measured: TMEM186 mRNA", "conditions": "concentration not given", "scale": "baseline: DMSO", "endpoint": "log2 fold change", "result": -1.3}
{"SMILES": "CC(C)c1ccc(N(C)c2ccc3c(c2)OCC[C@H]3CNc2cnccc2C(=O)O)cc1", "tested on": "MDA-MB-157", "test": "cell viability, CellTiter-Glo", "conditions": "7 days", "endpoint": "IC50", "result": "≥ 10 µM"}
{"SMILES": "CC(=O)N(C)Cc1cccc(-c2cc3c(c(C(F)(F)F)c2)CCCC3N(C)C(=O)CCOCCOCCC(=O)N(C)C2CCCc3c2cc(-c2cccc(CN(C)C(C)=O)c2)cc3C(F)(F)F)c1 (stereo not drawn)", "tested on": "CHO", "test": "immunoblot, measured: GADD34", "conditions": "20 µM", "endpoint": "time to peak induction", "result": "6 h"}
{"SMILES": "CC1(C)CC[C@@]2(CO)C(=C3C=C[C@@H]4[C@@]5(C)CC[C@H](O)[C@@](C)(CO)[C@@H]5CC[C@@]4(C)[C@]3(C)C[C@@H]2O)C1", "tested on": "HepG2, SIRT1 siRNA", "test": "flow cytometry", "conditions": "concentration not given, high dose", "scale": "baseline: control cells", "endpoint": "relative ROS fluorescence", "result": "0.587 and 1.33 and 0.48"}
{"SMILES": "CNS(=O)(=O)Nc1nccc(Cc2c(C)c3ccc(Oc4ncccc4F)cc3oc2=O)c1F", "tested on": "VCaP", "test": "cell viability", "conditions": "7 days", "endpoint": "IC50", "result": "> 1 µM"}
{"SMILES": "CCCC[C@H](NC(=O)COCCOCCNC(=O)CN1CCN(CC(=O)O)CCN(CC(=O)O)CC1)C(=O)N[C@H]1CC(=O)NCCCC[C@@H](C(N)=O)NC(=O)[C@H](Cc2c[nH]c3ccccc23)NC(=O)[C@H](CCCNC(=N)N)NC(=O)[C@@H](Cc2ccccc2)NC(=O)[C@H](Cc2c[nH]cn2)NC1=O [technetium-99m labelled]", "system": "C57 mouse, lung", "conditions": "intravenous, 0.037 MBq, 2 h", "endpoint": "tissue uptake", "result": "0.29 ± 0.11 %ID/g"}
{"SMILES": "Cc1c(Cl)c(=O)oc2cc(OCCCCCCSC#N)ccc12", "tested on": "T47D", "test": "cell growth or viability, SRB", "endpoint": "GI50", "result": "9.8 µM"}
{"SMILES": "CCN(C(=O)c1cc(F)ccc1Oc1nncnc1N1CCC2(C1)CN([C@H](CCCN(C)CCOC)C(C)C)C2)C(C)C", "tested on": "SW-620", "test": "cell growth or viability", "conditions": "72 h", "endpoint": "GI50", "result": "> 10 µM"}
{"SMILES": "O=C(C[Se]C(=O)c1ccccc1Nc1ccccc1)Nc1cccc(C(F)(F)F)c1", "tested on": "NCI60 breast subpanel", "test": "cell growth", "conditions": "10 µM, 48 h, one-dose", "endpoint": "mean growth percent", "result": "-60.1%"}
{"SMILES": "Cn1ncc2cc(-c3cncc(Cl)c3N3CCC4(CCNC4=O)CC3)ccc21", "tested on": "LS174T", "test": "gene expression, microarray, measured: PLAC8 mRNA", "conditions": "concentration not given, 24 h", "scale": "baseline: untreated cells", "endpoint": "log2 fold change", "result": 2.47}
{"SMILES": "C=CC(=O)N1[C@H](c2ccc3c(c2)OCO3)c2[nH]c3ccccc3c2C[C@@H]1C(=O)NC1CC1", "tested on": "rat DRG neurons", "conditions": "0.1235 µM, 48 h, together with: vincristine 40 nM", "endpoint": "mean neuron degeneration", "result": "64%"}
{"SMILES": "CNC(=O)C1CCCN(C(=O)C2CC3CCC2N3C(=O)[C@@H]2C[C@@H](O)CN2C(=O)NCc2cccc(Cl)c2F)C1 (mixture of isomers)", "tested on": "human CYP3A4", "test": "time-dependent inhibition", "conditions": "16.7 µM, preincubation with NADPH, together with: testosterone", "endpoint": "6β-hydroxytestosterone formed", "result": "179 ng/mL"}
{"SMILES": "Cc1ccncc1.[Cl-].[Cl-].[Ru+2].c1cc(-c2ccc3cccnc3n2)nc(-c2ccc3cccnc3n2)c1.c1ccc2cc3nc4c5cccnc5c5ncccc5c4nc3cc2c1", "tested on": "B16-F10", "test": "resazurin", "conditions": "together with: light 523 nm, 20 mW, 100 J/cm2", "endpoint": "EC50", "result": "1.31 µM"}
{"note": "For quick reference, copied from above:"}
{"SMILES": "[BH3-][P+]1(c2ccccc2)CCCCC1", "tested on": "HCT-116", "test": "MTT", "conditions": "72 h", "scale": "baseline: IC50 HaCaT over IC50 HCT-116", "endpoint": "selectivity index", "result": 2.03}
{"SMILES": "O=C1C2CC3CC1CC(C(=O)N1CCN(c4ccc([N+](=O)[O-])c5ncccc45)CC1)(C3)C2", "tested on": "Salmonella typhimurium", "test": "Ames test", "system": "TA1535", "conditions": "0.31 µg/well, without S9", "endpoint": "mean revertant colonies", "result": "4 colonies/well"}
{"SMILES": "Cc1ncsc1-c1ccc(C(C)NC(=O)C2CC(O)CN2C(=O)C(NC(=O)CCCCCCCCCCN2CCCC(Nc3ncc(Cl)c(Nc4ccccc4S(=O)(=O)C(C)C)n3)C2)C(C)(C)C)cc1 (stereo not drawn)", "tested on": "22Rv1", "test": "RNA-seq, measured: TMEM186 mRNA", "conditions": "concentration not given", "scale": "baseline: DMSO", "endpoint": "log2 fold change", "result": -1.3}
{"SMILES": "C=CC(=O)Nc1cccc(Cn2ncc3cnc(Nc4cnn(CCOC)c4)nc32)c1", "tested on": "MYLK2 human", "test": "binding, KINOMEscan", "conditions": "100 nM", "scale": "lower = stronger binding", "endpoint": "percent of control", "result": "67%"}
